# Results collected from several papers.
# Each line is one published result; not all experiments were run side by side. Several values in a cell are separate wells, animals, samples, runs or records. Numbers after ± are the reported error.
SMILES,test,system,conditions,how to read,endpoint,value
C=CC(=O)NC1CCN(c2ncc3ncnc(Nc4ccc(Oc5ccc6c(c5)ncn6C)c(C)c4)c3n2)CC1,,"healthy male volunteers, plasma","oral solution, 60 mg, up to last quantifiable time, 14C-labelled",,parent share of total radioactivity,59.5%
Cc1cc(C)c(CNC(=O)c2cc(Cl)c3c(c2C)O[C@@](C)([C@H]2CC[C@H](N(C)C)CC2)O3)c(=O)[nH]1,,relapsed/refractory NHL patients,"oral, 200 mg once daily, onset after cycle 1 day 1",,adverse event Dyspnea,16.7%
C[C@@H](O)CCOC(=O)C[C@@H](C)O,,human,"oral drink, 60 min post dose, mean",,systolic blood pressure,109 mmHg
O=C(CCCN1CCC(O)(c2ccc(Cl)cc2)CC1)c1ccc(F)cc1,,"male Hartley guinea pigs, anaesthetized","intravenous, 0.1 mg/kg over 10 min, after infusion",,heart rate,222 ± 0.4 beats/min
O=c1c(O)c(-c2ccc(O)cc2O)oc2cc(O)cc(O)c12,,human CSF,"concentration not given, mean",,CSF concentration,not detected
Cl.[2H]C([2H])([2H])CC(=O)c1cnc(NC(=O)C2CC2)cc1Nc1cccc(-c2ncn(C([2H])([2H])[2H])n2)c1OC,geometric mean,human,"25 mg single dose, fasted, liquid",,CL/F,11.7 L/h
CCCCC1=NC2(CCCC2)C(=O)N1Cc1ccc(-c2ccccc2S(=O)(=O)Nc2noc(C)c2C)c(COCC)c1,,"healthy adult volunteers, plasma","oral, 800 mg, single dose, fed, crushed tablet",,AUC(0-inf),177000 ng·h/mL
C[C@@H]1CN(c2c(F)c(N)c3c(=O)c(C(=O)O)cn(C4CC4)c3c2F)C[C@H](C)N1,,"male Hartley guinea pigs, anaesthetized","intravenous, 3 mg/kg over 10 min, after infusion",,heart rate,218 ± 0.3 beats/min
CN(CCC(=O)O)C(=O)c1ccc2c(c1)CC[C@@H]1[C@@H]2CC[C@]2(C)C(c3cncc(F)c3)=CC[C@@H]12,,"premenopausal women, endometriosis pain, serum","60 mg twice daily, visit 6, mean",baseline: baseline,indirect bilirubin change,0.47 mg/dL
O=c1cc(-c2ccccc2)oc2ccccc12,,human CSF,"concentration not given, mean",,CSF concentration,not detected
COc1ccc2nc([S@@+]([O-])Cc3ncc(C)c(OC)c3C)[nH]c2c1,,"human male, dried plasma spots","oral, 5 mg racemic omeprazole, added: fluvoxamine and voriconazole",,AUC(0-8 h),1.75 µM·h
CCOCc1nc(O)c(-c2nnc(Cc3ccc(Cl)cn3)o2)c(O)c1-c1c(OC)cccc1OC,,"rat, anaesthetised, cannulated, plasma","intravenous infusion, 100 µg/kg/min, 5 min",,plasma concentration,8.17 µM
[18F]c1ccc(-c2ccc3c(c2)[nH]c2ccncc23)cn1,ex vivo biodistribution,"APP/PS1 Alzheimer mice, brain stem","intravenous, 30 min",,uptake,0.365 ± 0.021 SUV
CNC(=O)c1ccc(-c2cnc3ncc(Cc4ccc5ncccc5c4)n3n2)cc1F,,Japanese patients,"oral, 400 mg, any grade",,Lymphopenia dose reduction/interruption,1%
Cc1ccc(Sc2ccccc2N2CCNCC2)c(C)c1,item: Thirst,healthy adult men,"oral, 10 mg single dose",,participants with TEAE,0%
CN(C(=O)n1cnc(-c2cccnc2)c1)C1CCCCC1,,"Wistar rat, cerebral cortex","oral, 10 mg/kg, 1 h, single dose",,tissue concentration,76 ± 16.5 ng/g
C[C@@H](N)C1CCN(S(=O)(=O)c2cccc3cnccc23)CC1,,healthy volunteers,"250 mg, fasted",,participants with mental impairment,16.7%
COc1ccc2c(=O)n(C)c(-c3ccccc3)nc2c1,,"Sprague-Dawley rat, brain","oral, 30 mg/kg, 0.25 h",,tissue concentration,not detected
C=CCn1c(=O)c2cnc(Nc3ccc(N4CCN(C)CC4)cc3)nc2n1-c1cccc(C(C)(C)O)n1,,human,"oral, 150 mg twice daily, cycle 1 day 17, added: durvalumab 1500 mg IV",geometric mean,AUC(0-t),4.88 µM·h
C[C@@H](Oc1ccc(S(C)(=O)=O)cc1C(=O)N1C[C@@H]2C[C@]2(c2cc(C(F)(F)F)on2)C1)C(F)(F)F,LC-MS/MS,"young human subjects, plasma","oral, 75 mg once daily, single dose",,half-life,37.1 h
CC(C)(C(=O)N1CCOc2c(C#N)cncc2C1)C(F)F,item: vessel puncture site pain,"healthy humans, both sexes","oral, 40 mg single dose",,subjects with TEAE,16.7%
O=C(Nc1nc2cccc(-c3ccc(CN4CCS(=O)(=O)CC4)cc3)n2n1)C1CC1,item: asthenia,human rheumatoid arthritis patients,"oral, 200 mg once daily, 4 weeks, regardless of relatedness",,treatment-emergent adverse events,0%
CCCCCCCCNCc1ccc(CNC(=O)c2csc3nc[nH]c(=O)c23)cc1,haemolysis,human red blood cells,"1 h, 37 °C",,EC50,> 100 µM
COc1cc(C(=O)N2CCC3(CC2)CC(=O)c2c(cnn2C(C)C)C3)cc(-c2ccc(C(=O)O)cc2)n1,item: direct LDL cholesterol,"human, fasting serum","3 mg every 12 h, day 13, adjusted geometric mean",baseline: baseline,percentage change from baseline,2%
Cc1ccc(C(=O)N(CCCN)C(c2nc3snc(C)c3c(=O)n2Cc2ccccc2)C(C)C)cc1 (stereo not drawn),,human patients,"intravenous, 16 mg/day",,grade ≥3 fatigue patients,0%
CCN1/C(=C/C(C)=O)Sc2ccc(F)cc21,,cynomolgus monkey,"oral, 30 mg/kg, 1 h post-dose",,heart rate,106 ± 17 beats/min
COc1cc(C2=CCCc3c2ccc(OC)c3OC(C)c2cnc([N+](=O)[O-])n2C)cc(OC)c1OC (stereo not drawn),"non-enzymatic, no POR",phosphate buffer,"24 h, pH 7.4",,parent drug release,0%
CNc1ccc(-c2nc3ccc(O)cc3s2)cc1 [carbon-11 labelled],ex vivo biodistribution,"normal B6SJL mice, gut","intravenous, 30 min",,uptake,4.99 ± 1.6 SUV
O=c1c2ccccc2oc2ccccc12,,tricaprin-tricaprylin mixture,"75 °C, tricaprin fraction 1.00",,solubility,0.052 mole fraction
OC[C@H]1O[C@@H](c2ccc(F)c(Cc3cc4ccccc4s3)c2)[C@H](O)[C@@H](O)[C@@H]1O,,"Japanese patients, type 1 diabetes","oral, 50 mg/day, onset day 6",baseline: patients,hypoglycaemia-related adverse event,6%
O=C(CCCN1CC=C(n2c(=O)[nH]c3ccccc32)CC1)c1ccc(F)cc1,,"male Hartley guinea pigs, anaesthetized","intravenous, 0.1 mg/kg group, baseline before infusion",,heart rate,231 ± 0.7 beats/min
OC[C@H]1O[C@@H](c2ccc(Cl)c(Cc3ccc(O[C@H]4CCOC4)cc3)c2)[C@H](O)[C@@H](O)[C@@H]1O,,"Japanese type 1 diabetes patients, blood","25 mg, day 28",baseline: baseline,change in Chloride,1 mEq/L
CCO[C@H]1CCN(Cc2c(OC)cc(C)c3[nH]ccc23)[C@H](c2ccc(C(=O)O)cc2)C1,,"human mild hepatic impairment, plasma","oral, 200 mg single dose, mean",,unbound AUC0–12,4940 ng·h/mL
CCOc1c([C@H](C)n2nc(C)c3c(N)ncnc32)cc(Cl)c(F)c1[C@@H]1CNC(=O)C1,item: QTcF change above 60 ms,previously treated B-cell malignancy,"oral, 5 mg once daily, baseline QTcF ≤450 ms",baseline: baseline,patients,0%
C[C@@H](Nc1cc(F)cc(F)c1)c1cc(C(=O)N(C)C)cc2c(=O)cc(N3CCOCC3)oc12,item: autoimmune colitis,patients with advanced solid tumours,"oral, dose not given, dose expansion phase I",,treatment-related serious adverse events,0%
C=CCN1CC(=O)N2[C@@H](Cc3ccc(O)cc3F)C(=O)N(Cc3cccc(N4CC(N5CCN(CC)CC5)C4)n3)C[C@@H]2N1C(=O)NCc1ccccc1,,advanced solid tumour patients,"oral, 45 mg twice daily, grade ≥3, dose-escalation",,treatment-related nausea,0%
CC(C)n1c(Nc2cccnc2)nc2cnc(Nc3ccc(N4CCN(C)CC4)cc3)nc21,item: sinus bradycardia,healthy male subjects,"oral, 100 mg, study, added: gemfibrozil",,subjects with adverse event,0%
CC[C@H](C)[C@H](NC(=O)[C@H](Cc1ccccc1)NC(=O)[C@H](CCC(=O)O)NC(=O)[C@H](CCCCNC(=O)COCCOCCNC(=O)COCCOCCNC(=O)CC[C@H](NC(=O)CCCCCCCCCCCCCCCCC(=O)O)C(=O)O)NC(=O)[C@H](C)NC(=O)[C@H](C)NC(=O)[C@H](CCC(N)=O)NC(=O)CNC(=O)[C@H](CCC(=O)O)NC(=O)[C@H](CC(C)C)NC(=O)[C@H](Cc1ccc(O)cc1)NC(=O)[C@H](CO)NC(=O)[C@H](CO)NC(=O)[C@@H](NC(=O)[C@H](CC(=O)O)NC(=O)[C@H](CO)NC(=O)[C@@H](NC(=O)[C@H](Cc1ccccc1)NC(=O)[C@@H](NC(=O)CNC(=O)[C@H](CCC(=O)O)NC(=O)C(C)(C)NC(=O)[C@@H](N)Cc1cnc[nH]1)[C@@H](C)O)[C@@H](C)O)C(C)C)C(=O)N[C@@H](C)C(=O)N[C@@H](Cc1c[nH]c2ccccc12)C(=O)N[C@@H](CC(C)C)C(=O)N[C@H](C(=O)N[C@@H](CCCNC(=N)N)C(=O)NCC(=O)N[C@@H](CCCNC(=N)N)C(=O)NCC(=O)O)C(C)C,12-lead Holter ECG,healthy humans,"subcutaneous, 1.5 mg once weekly, 12 h, steady state",baseline: placebo,QT change from baseline,-16.6 ms
CCc1c(-c2ccccc2)c(-c2ccccc2)nn1-c1ccccc1-c1cccc(OCC(=O)O)c1,,"Sprague-Dawley rat, large intestine homogenate","oral, 10 mg/kg, 4 h",,concentration,253 ng/mL and 324 ng/mL
CCN(c1cc(-c2ccc(CN3CCOCC3)cc2)cc(C(=O)NCc2c(C)cc(C)[nH]c2=O)c1C)C1CCOCC1,,"mouse xenograft, heart",dose not given,,organ weight,112 mg
N#Cc1ccc2c(c1)[C@H]1CCCN(C(=O)c3ccc4[nH]cnc4c3)[C@H]1C2,,human,"10 mg, day 15",baseline: baseline,cortisol level change,-148 nmol/L
C=CC(=O)N1CCC(Oc2cc3c(Nc4ccc(Cl)c(Cl)c4F)ncnc3cc2OC)CC1,,"Sprague-Dawley rat, male, plasma","oral, 2 mg/kg, 1 weeks pretreatment, added: Schisandrin B 20 mg/kg daily pretreatment",,MRT(0-t),4.49 ± 0.52 h
Cc1ccc([C@@H]2O[C@H](CO)[C@@H](O)[C@H](O)[C@H]2O)cc1Cc1ccc(-c2ccc(F)cc2)s1,,Japanese type 2 diabetes patients,"25 mg, day 18, 24 h urine collection",baseline: baseline,urinary calcium excretion change,6.3 mg
O=C(O)CCc1ccc(O)c(OS(=O)(=O)O)c1,,human CSF,"concentration not given, mean",,CSF concentration,not detected
O=C(O)CCC(=O)O.[2H]C([2H])([2H])Oc1cc(C)c2[nH]ccc2c1CN1CC[C@@H](C2CC2)C[C@H]1c1ccc(C(=O)O)cc1,multiple ascending dose,healthy Chinese subjects,300 mg once daily,,subjects with sinus bradycardia TEAE,0%

# Excerpt of the above:
SMILES,test,system,conditions,how to read,endpoint,value
O=C(CCCN1CCC(O)(c2ccc(Cl)cc2)CC1)c1ccc(F)cc1,,"male Hartley guinea pigs, anaesthetized","intravenous, 0.1 mg/kg over 10 min, after infusion",,heart rate,222 ± 0.4 beats/min
COc1ccc2nc([S@@+]([O-])Cc3ncc(C)c(OC)c3C)[nH]c2c1,,"human male, dried plasma spots","oral, 5 mg racemic omeprazole, added: fluvoxamine and voriconazole",,AUC(0-8 h),1.75 µM·h
CN(C(=O)n1cnc(-c2cccnc2)c1)C1CCCCC1,,"Wistar rat, cerebral cortex","oral, 10 mg/kg, 1 h, single dose",,tissue concentration,76 ± 16.5 ng/g
O=C(O)CCC(=O)O.[2H]C([2H])([2H])Oc1cc(C)c2[nH]ccc2c1CN1CC[C@@H](C2CC2)C[C@H]1c1ccc(C(=O)O)cc1,multiple ascending dose,healthy Chinese subjects,300 mg once daily,,subjects with sinus bradycardia TEAE,0%
C=CC(=O)NC1CCN(c2ncc3ncnc(Nc4ccc(Oc5ccc6c(c5)ncn6C)c(C)c4)c3n2)CC1,,"healthy male volunteers, plasma","oral solution, 60 mg, up to last quantifiable time, 14C-labelled",,parent share of total radioactivity,59.5%
O=C(Nc1nc2cccc(-c3ccc(CN4CCS(=O)(=O)CC4)cc3)n2n1)C1CC1,item: asthenia,human rheumatoid arthritis patients,"oral, 200 mg once daily, 4 weeks, regardless of relatedness",,treatment-emergent adverse events,0%
C[C@@H]1CN(c2c(F)c(N)c3c(=O)c(C(=O)O)cn(C4CC4)c3c2F)C[C@H](C)N1,,"male Hartley guinea pigs, anaesthetized","intravenous, 3 mg/kg over 10 min, after infusion",,heart rate,218 ± 0.3 beats/min
